Measured values pooled from the literature.
Parts stem from different laboratories: compare values within a part only.

Set 1
Target: Centromere-binding protein 1, full length, N-terminal tag (CBF1, Saccharomyces cerevisiae, UniProt P17106, residues 1-351)
UniProt P17106, sequence (whole entry, looked up): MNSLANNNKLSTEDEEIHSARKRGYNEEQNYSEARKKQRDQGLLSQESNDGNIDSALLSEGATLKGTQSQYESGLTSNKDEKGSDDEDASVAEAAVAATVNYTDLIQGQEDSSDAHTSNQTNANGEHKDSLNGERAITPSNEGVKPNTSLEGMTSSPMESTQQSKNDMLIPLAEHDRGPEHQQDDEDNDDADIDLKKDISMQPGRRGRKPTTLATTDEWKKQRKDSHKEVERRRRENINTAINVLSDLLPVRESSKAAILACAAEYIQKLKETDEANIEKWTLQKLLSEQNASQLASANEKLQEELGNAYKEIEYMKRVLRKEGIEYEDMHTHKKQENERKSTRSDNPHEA
Technique: protein-binding microarray
Form: double-stranded DNA, one strand shown
Sample: in vitro
Concentration: 0.8 µM
Notes: whole 60-bp probe, no competitor
Direction: higher = stronger binding
| Sequence | fluorescence intensity [a.u.] |
| --- | --- |
| GAAACAGTAACTTATCATCAGGACTGTTGGAATTAGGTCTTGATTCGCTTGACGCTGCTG | 521 |
| GAAATTACTGCACGTCATGTGGGAGGAGGATGTTAGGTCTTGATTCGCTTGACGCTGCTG | 1020 |
| CTATTATCGTTCTCTGACATCACCCACTCTCTGTTCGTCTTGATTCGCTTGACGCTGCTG | 574 |
| TGTACGAAGCTATGGCACGAGATTATAGTAGTTAGGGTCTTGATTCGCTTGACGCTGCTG | 783 |
| CTAATAGCCAGACGTGATTCCCCTAAACTCAGGTTCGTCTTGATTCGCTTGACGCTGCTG | 548 |
| GAACCATAAAGCCTTCACGTTATACTTTTTTTTTAGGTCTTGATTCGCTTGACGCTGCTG | 609 |
| CTAGACATCCACAAAGGTGACAGAACAAAATCATTCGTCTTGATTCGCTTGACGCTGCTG | 511 |
| GAATGTTTCGTCCACCTGACCGAGCCGGCAGCTTAGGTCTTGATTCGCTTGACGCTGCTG | 2470 |
| CTACAGTTTTTTCGTGGTGAGCTTTTTTTGCCTTTCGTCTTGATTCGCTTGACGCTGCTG | 490 |
| GAAATATACATTCCGGGTCACATGTGCCCAAATTAGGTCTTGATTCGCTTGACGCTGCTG | 11000 |
| CTAATATCGCTAGCATGCGTGAGTTATGGATAATTCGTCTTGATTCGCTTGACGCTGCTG | 551 |
| GAACGGATACCCGCACAGCACGTGTTTTTCCGTTAGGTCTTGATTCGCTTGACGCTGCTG | 7880 |
| CCTAACTACTATAGTCATGTGATATAGCTTCGTACAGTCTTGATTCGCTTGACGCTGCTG | 5120 |
| CTAATGGGATACGTCAGCATGACAATACATTATTTCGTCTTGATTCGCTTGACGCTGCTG | 556 |
| TGTACGAAGCTATCACATGACATTATAGTAGTTAGGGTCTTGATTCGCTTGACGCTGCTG | 4570 |
| CTACCACTTTTTTATCACGTTTCTTAGCGTTATTTCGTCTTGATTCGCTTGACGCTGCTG | 1440 |
| CTATCTAATGCATCAGCTGTTATGCGCACTACTTTCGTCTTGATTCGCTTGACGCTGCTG | 626 |
| CTATTCTCAAACCTTCACCTGGTGGTGCGTATCTTCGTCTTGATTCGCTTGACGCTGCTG | 567 |
| GAACGAATAGAGTATCAGCTGACGGAATGGAGATAGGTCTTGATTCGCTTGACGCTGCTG | 2010 |

Set 2
Target: RNA binding protein fox-1 homolog 2, RRM domain, GST-SBP tag (RBFOX2, Homo sapiens, UniProt O43251-10, residues 100-194)
Technique: RNA Bind-n-Seq
Form: RNA
Sample: in vitro
Concentration: 365 nM
Notes: natural RNA segment, single round, ends assumed
Baseline: no-protein control
Direction: higher = stronger binding
Target sequence (chain): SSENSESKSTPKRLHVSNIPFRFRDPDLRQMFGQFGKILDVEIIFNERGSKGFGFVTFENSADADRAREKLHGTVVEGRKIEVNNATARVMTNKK
| Sequence | RBNS enrichment (R) |
| --- | --- |
| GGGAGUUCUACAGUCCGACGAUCACCUGGCACUAAGGGAGUACCUUAUUAUCCUACAUCGCAAAUUUCAACAGCUACAUUAUAUUUCCUUCUGACACUUGGAAGGUAUUGAAAUUUCUAGAAAUGUAUCCUUCUGGAAUUCUCGGGUGCCAA | 0.709 |
| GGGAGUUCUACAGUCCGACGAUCACAUUCCAUUUUGGUAGCAAUAUGCAGUCCGAAUGCAUGCAUUCAUAAGUCCAUUUGGCCAAGUCAGCCUGUGUGCUACUGAACUGUCAAGAGAUUGCCACUCUCAUAGGUGGAAUUCUCGGGUGCCAA | 1.73 |
| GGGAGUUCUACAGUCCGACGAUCAGAUUUUCUACUUGAAUAUUUUUAUGUUGUAGGAACCUCAGGAGGUCAGUGUUUACUGUUUUAUAUAUGCCUUCUUUUUCCUGUUUGAGCUUCUCUCUCUGAAGGAUUCUUGGAAUUCUCGGGUGCCAA | 0.327 |
| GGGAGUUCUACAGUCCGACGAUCGUCUGUCAUUAAUAAUAAUUAACCCCCCUCCCCUCAUGGAACACUCCCGUUUGUACCUCAACAGAUGCAAAUUCCCCUCUCGUUCACCCUACGCCCUUUUUGGUACACUUUGGAAUUCUCGGGUGCCAA | 1.05 |
| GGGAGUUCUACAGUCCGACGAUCUUCCAGCGGUGUCUUGGGUACCGGGCUCUGUGGCUAGAUCGGUUGCUUCAGGAACUUAAUGCCACUCAGUUCAACAUCACAGGUGAAAUCAUGUCUCAGUUCCCAUCUAGUGGAAUUCUCGGGUGCCAA | 0.37 |
| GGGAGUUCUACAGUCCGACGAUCUAAGACUAAGAUCUGUCUUUUUGGUGACUAACACUUCAGUUCUUUCAACUCCUAUUAAUACCCAUAAUCAGUAACCUACCAAGAAAAGCCCGUAUUUGGAAAGUGUGGAGUGGAAUUCUCGGGUGCCAA | 1.02 |
| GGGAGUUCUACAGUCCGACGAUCAGGACAAGGGCAGCCCCACCCCAUCCAGCCUGGGCUCCCCGCAGACCCUUGCUGCUCCCGUGGCCUGGACACGCUGGGGAGCUUCUCACACCUACCCCUACCGUCCAGCCUGGAAUUCUCGGGUGCCAA | 0.277 |
| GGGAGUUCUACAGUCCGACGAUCCCGCAAAGAAAUUGAGUUGAUUAGGCAAGUCUAUACAAUUAGAGGCAAAGGUCACAGUGAUGCAAAAGACAAAACUGAUGUCCUUAUCCUUAGACAAUUAACCACCAAAUUGGAAUUCUCGGGUGCCAA | 0.536 |

Set 3
Target: Prothrombin, mature alpha-thrombin (F2, Homo sapiens, UniProt P00734)
Technique: aptamer microarray, sandwich
Form: DNA with 2'F-ANA
Sample: in vitro
Concentration: 200 nM
Notes: whole 15-mer aptamer, many near background
Together with: Cy3 exosite-II aptamer, 400 nM
Direction: higher = stronger binding
Sequence: GGTTGGTGTGGTTGG
| Modification | mean fluorescence intensity |
| --- | --- |
| 2'F-ANA at 3 4 5 7 11 12 13 15 | 115 a.u. |
| 2'F-ANA at 6 10 11 14 15 | 91.5 a.u. |
| 2'F-ANA at 2 3 5 6 7 9 12 14 | 54.5 a.u. |
| 2'F-ANA at 1 3 5 6 7 8 9 11 12 13 14 | 50.7 a.u. |
| 2'F-ANA at 5 6 7 8 10 14 15 | 48.4 a.u. |
| 2'F-ANA at 3 5 6 8 9 11 | 99.3 a.u. |
| 2'F-ANA at 2 3 5 11 12 13 | 150 a.u. |
| 2'F-ANA at 1 2 4 5 6 7 12 14 | 45.6 a.u. |
| 2'F-ANA at 2 3 5 7 8 9 10 12 13 14 | 53.6 a.u. |
| 2'F-ANA at 9 14 15 | 196 a.u. |
| 2'F-ANA at 2 4 5 6 7 10 14 | 50.9 a.u. |
| 2'F-ANA at 2 3 6 7 8 9 10 15 | 326 a.u. |
| 2'F-ANA at 1 3 4 5 6 7 8 14 | 59.8 a.u. |
| 2'F-ANA at 2 3 4 5 6 7 9 13 14 15 | 49.7 a.u. |
| 2'F-ANA at 2 4 5 6 7 8 14 15 | 46.9 a.u. |
| 2'F-ANA at 1 2 6 8 10 13 14 | 47.3 a.u. |

Set 4
Target: Histone acetyltransferase KAT6A, winged helix 2, GST fusion (KAT6A, Homo sapiens, UniProt Q92794, residues 85-181)
Technique: protein binding microarray
Form: double-stranded DNA, one strand shown
Sample: in vitro
Concentration: not given
Notes: 8-mer, flanks averaged, mean of 2 arrays, mostly near background
Baseline: not given
Direction: higher = stronger binding
Construct (chain): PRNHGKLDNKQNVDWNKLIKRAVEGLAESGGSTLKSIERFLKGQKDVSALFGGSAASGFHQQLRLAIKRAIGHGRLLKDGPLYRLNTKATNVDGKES
| Sequence | E-score |
| --- | --- |
| CAACCTTC | 0.0201 |
| CTAGGCGC | 0.0306 |
| ATTGTGCA | -0.0879 |
| CGCCCTAG | 0.123 |
| CAGTTTTC | 0.0979 |
| ACAAAGCG | 0.176 |
| ATAGCCTA | 0.0622 |
| GCGCCACC | 0.0861 |
| GATTGTTA | 0.00491 |
| AACCAGAC | 0.01 |
| ATAGTCGA | 0.0646 |
| ATCTAGAC | -0.0502 |
| AATAAAGC | 0.0189 |
| CCGATTAA | 0.0619 |
| GCAGGCGC | 0.292 |
| AGAAAGCC | 0.0244 |
| CCAGTCTA | -0.0633 |
| CGTGCACA | -0.113 |
| CGAAAGAA | -0.004 |
| GCTCGAGA | 0.0221 |

A few entries again (set 4):
| Sequence | E-score |
| --- | --- |
| CAACCTTC | 0.0201 |
| CTAGGCGC | 0.0306 |
| ATTGTGCA | -0.0879 |
| CGCCCTAG | 0.123 |
| CAGTTTTC | 0.0979 |
| ACAAAGCG | 0.176 |
